Published values gathered from unrelated publications.
A part holds a random share of what one study measured. Positions count from the first letter of the parent shown.

Study 1 — target: ATF3, bZIP domain (human); technique: DHFR protein complementation; sample: yeast; reference: wild-type JUN-FOS pair; direction: higher = stronger binding; quantity: binding fitness
Notes: single substitutions, most at no-binding floor
Parent: JUN, bZIP domain (human); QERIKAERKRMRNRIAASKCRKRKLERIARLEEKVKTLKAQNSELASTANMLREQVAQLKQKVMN; partner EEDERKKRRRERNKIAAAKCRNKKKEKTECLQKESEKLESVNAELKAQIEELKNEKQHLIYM
Substitution = E33M; result = -0.238 natural log
Substitution = A46M; result = 0.0305 natural log
Substitution = N42V; result = -1.1 natural log
Substitution = L59S; result = -1.22 natural log
Substitution = R53P; result = -1.38 natural log
Substitution = T48A; result = -0.163 natural log
Substitution = S47T; result = -0.126 natural log
Substitution = V56T; result = -0.799 natural log
Substitution = A29E; result = -0.23 natural log
Substitution = I28W; result = -0.18 natural log
Substitution = L31P; result = -1.19 natural log
Substitution = E33A; result = -0.126 natural log
Substitution = K39E; result = -0.309 natural log
Substitution = L59H; result = -1.37 natural log
Substitution = R53S; result = -0.259 natural log
Substitution = T48L; result = -0.132 natural log
Substitution = V35P; result = -1.24 natural log
Substitution = T37L; result = -0.0134 natural log
Substitution = A49Q; result = -0.497 natural log
Substitution = R30V; result = 0.0889 natural log
Substitution = E54A; result = -0.22 natural log

Study 2 — target: CCNB1, cyclin fold, Cln2 fusion (human); technique: yeast growth competition, sequencing; sample: yeast; notes: strong parent motif; reference: not given; direction: higher = stronger binding; quantity: normalised enrichment score
Parent: PKN2 docking peptide (human); VSAVRKLDFSDTM; partner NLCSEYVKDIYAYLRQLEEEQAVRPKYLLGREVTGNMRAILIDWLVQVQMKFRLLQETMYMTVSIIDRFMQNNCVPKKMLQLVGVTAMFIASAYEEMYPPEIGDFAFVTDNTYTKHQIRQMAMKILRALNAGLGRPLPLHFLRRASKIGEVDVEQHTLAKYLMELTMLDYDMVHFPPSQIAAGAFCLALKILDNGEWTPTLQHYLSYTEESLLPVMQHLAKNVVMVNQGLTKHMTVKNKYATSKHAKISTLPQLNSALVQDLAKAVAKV
Substitution = VSEVRKLDFSDTM [A3E]; result = 2
Substitution = VSAVSKLDFSDTM [R5S]; result = 0.617
Substitution = VSAVKKLDFSDTM [R5K]; result = 2.42
Substitution = VSAVRKCDFSDTM [L7C]; result = -0.0907
Substitution = VSAVRKLGFSDTM [D8G]; result = 0.424
Substitution = VSAVRQLDFSDTM [K6Q]; result = 2.83
Substitution = VSAVCKLDFSDTM [R5C]; result = 2.96
Substitution = VSAVRKDDFSDTM [L7D]; result = -0.0431
Substitution = VSAVHKLDFSDTM [R5H]; result = 0.818
Substitution = VSAVFKLDFSDTM [R5F]; result = 0.649
Substitution = VSAVRKIDFSDTM [L7I]; result = 1.77
Substitution = VSAVRKTDFSDTM [L7T]; result = 0.126
Substitution = VSAPRKLDFSDTM [V4P]; result = 0.306
Substitution = VSAVRKLDYSDTM [F9Y]; result = 1.52
Substitution = VSAVRKLDFSDFM [T12F]; result = 3.55

Study 3 — technique: universal PBM; form: double-stranded DNA, one strand shown; sample: in vitro; concentration: not given; direction: higher = stronger binding; quantity: E-score
Target: Sal-like protein 4, full length isoform B (SALL4, Homo sapiens, UniProt Q9UJQ4-2, residues 1-616)
Notes: 8-mer, flanks averaged, mean of replicates
Oligonucleotide = ACCCCGCC; result = -0.178
Oligonucleotide = CACTTACA; result = 0.271
Oligonucleotide = AAACTTCT; result = 0.117
Oligonucleotide = CTCGCAAC; result = 0.0215
Oligonucleotide = ACTAAGTA; result = 0.0551
Oligonucleotide = AGCGTCGA; result = -0.0808
Oligonucleotide = GCGGTGTA; result = -0.0701
Oligonucleotide = CAGCGCAG; result = -0.219
Oligonucleotide = ACGGTCGA; result = -0.192
Oligonucleotide = CCGCGGCG; result = -0.319
Oligonucleotide = TAGGCGGA; result = 0.0851
Oligonucleotide = GGTCCGAC; result = -0.341
Oligonucleotide = CAATCGCG; result = -0.125
Oligonucleotide = CGCCACCA; result = -0.166
Oligonucleotide = CTCAGTGC; result = -0.176
Oligonucleotide = CCATACGA; result = 0.128
Oligonucleotide = AAGACACT; result = 0.048
Oligonucleotide = ATAATTCG; result = 0.285
Oligonucleotide = ACTAGTTA; result = 0.245
Oligonucleotide = AAAAGGTA; result = 0.11
Oligonucleotide = ACTACCCT; result = -0.0534
Oligonucleotide = CTTGCCTC; result = -0.114
Oligonucleotide = TCGTTAGA; result = 0.0767

Study 4 — technique: protein binding microarray; form: double-stranded DNA, one strand shown; sample: in vitro; concentration: not given; reference: not given; direction: higher = stronger binding; quantity: E-score
Target: Histone acetyltransferase KAT6A, winged helix 1, GST fusion (KAT6A, Homo sapiens, UniProt Q92794, residues 1-85)
Notes: 8-mer, flanks averaged, mean of 2 arrays, mostly near background
Residues (chain): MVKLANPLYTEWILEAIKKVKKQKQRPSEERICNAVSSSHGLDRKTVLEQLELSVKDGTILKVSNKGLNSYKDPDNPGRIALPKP
Oligonucleotide = TTAAGTAA; result = -0.0652
Oligonucleotide = ATCTGCGG; result = 0.223
Oligonucleotide = ATGGGCAA; result = -0.258
Oligonucleotide = CGGCACTC; result = 0.301
Oligonucleotide = AATCCAAA; result = -0.145
Oligonucleotide = AGGTATTC; result = -0.139
Oligonucleotide = CAATCGGG; result = 0.102
Oligonucleotide = CACTTTAG; result = -0.207
Oligonucleotide = GAGCTGAC; result = -0.118
Oligonucleotide = TCTCCCCA; result = -0.233
Oligonucleotide = CTGGTTCA; result = -0.29
Oligonucleotide = GCCGGAGC; result = 0.335
Oligonucleotide = AAGACTGC; result = -0.0884
Oligonucleotide = ACCGAACC; result = 0.0535
Oligonucleotide = CGAGTTGA; result = -0.182
Oligonucleotide = CCCTCCAA; result = -0.0804
Oligonucleotide = ATCAGCGC; result = 0.263
Oligonucleotide = AGTGCATG; result = -0.203
Oligonucleotide = TCTACTCA; result = -0.0384
Oligonucleotide = AGGCGAAT; result = -0.0997
Oligonucleotide = GTCATGTA; result = 0.00194
Oligonucleotide = GTAGCTCA; result = -0.0473
Oligonucleotide = ACAATGAG; result = -0.223
Oligonucleotide = ATCCTAAC; result = -0.0681

For quick reference, copied from above (study 2):
Substitution = VSAVRKTDFSDTM [L7T]; result = 0.126
Substitution = VSAVRKCDFSDTM [L7C]; result = -0.0907
Substitution = VSAVFKLDFSDTM [R5F]; result = 0.649
Substitution = VSAVKKLDFSDTM [R5K]; result = 2.42
Substitution = VSAVHKLDFSDTM [R5H]; result = 0.818
